Results from different studies.
Protocols differ between the studies behind these lines. Values joined by “and” are separate records of one study, mostly repeats; a detail may differ.
UniProt P04062, sequence (whole entry, unmodified, looked up): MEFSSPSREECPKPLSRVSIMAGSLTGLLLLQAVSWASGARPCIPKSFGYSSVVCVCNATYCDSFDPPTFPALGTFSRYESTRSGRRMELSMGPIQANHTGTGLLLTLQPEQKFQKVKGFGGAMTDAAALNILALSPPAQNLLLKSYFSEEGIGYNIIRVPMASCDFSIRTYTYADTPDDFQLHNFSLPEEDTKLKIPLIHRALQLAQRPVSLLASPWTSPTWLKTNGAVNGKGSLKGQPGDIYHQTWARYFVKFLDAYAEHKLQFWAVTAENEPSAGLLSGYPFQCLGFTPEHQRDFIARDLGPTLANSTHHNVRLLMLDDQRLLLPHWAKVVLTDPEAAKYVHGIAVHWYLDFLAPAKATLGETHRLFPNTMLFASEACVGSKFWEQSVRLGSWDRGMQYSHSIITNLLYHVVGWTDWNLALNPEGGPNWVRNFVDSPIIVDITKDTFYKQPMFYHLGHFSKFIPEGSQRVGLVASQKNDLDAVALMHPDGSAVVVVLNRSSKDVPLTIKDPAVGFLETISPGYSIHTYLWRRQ

For `CN1CCN(C(=O)c2ccc(-c3cc4c(N5CCC[C@H](C(=O)NCc6ccc(OC(F)(F)F)cc6)C5)ncnc4[nH]3)cc2)CC1`, the inhibition was 26.7% (KARPAS-299; cell growth or viability, MTT; 0.008 µg/mL, 72 h).
The inhibition of `COc1cc(C(=O)N2CC[C@@H](O)[C@@H](N)C2)cc2nc(-c3cc4cccnc4n3CC3CC3)n(C)c12` is reported as 11.4% and 30.9% and 30.3% and 14% (human neutrophils; protein citrullination, inhibitor, flow cytometry, item: citrullinated proteins; 1 µM, added: ionomycin).
The inhibition of `Cc1cc(NC2CCN(C)CC2)ccc1-c1cc2c(N3CCC[C@H](C(=O)N[C@H](C)c4ccccc4)C3)ncnc2[nH]1` is reported as 88.2% (KARPAS-299; cell growth or viability, MTT; 1 µg/mL, 72 h).
`COc1cc(/C=C/C(=O)/C=C(O)/C=C/c2ccc(OCC(=O)N3CCOCCOCCOCC3)c(OC)c2)ccc1OCC(=O)N1CCOCCOCCOCC1` gave an inhibition of 64.9% (COS-7; cell growth or viability, SRB; 25 µM).
With `COc1cc([C@@H]2O[C@@H](c3cc(OC)c(O[C@@H]4O[C@H](CO)[C@@H](O)[C@H](O)[C@H]4O)c(OC)c3)[C@H](CO)[C@H]2CO)cc(OC)c1O` the inhibition was greater than 50% (3T3-L1; lipid accumulation, Oil Red O staining; 5 µM, early differentiation; relative to: vehicle).
With `COc1cc(/C=C/C(=O)/C=C(O)/C=C/c2ccc(OCC(=O)N3CCOCCOCCOCCOCCOCC3)c(OC)c2)ccc1OCC(=O)N1CCOCCOCCOCCOCCOCC1` the inhibition was 95.7% (COS-7; cell growth or viability, SRB; 25 µM).
For `CC(C)Cc1ccc(CN2CCCC(NC(=O)c3nn(C)c(=O)c4ccccc34)C2)cc1` (stereo not drawn), the relative translation was 99.1% (Trypanosoma cruzi; reporter mRNA translation, inhibitor, item: capped polyadenylated Renilla luciferase mRNA; cell-free extract; concentration not given; relative to: control RNA).
The inhibition of `CCOC(=O)c1cn(CC(c2c[nH]c3cc(Br)ccc23)c2c[nH]c3cc(Br)ccc23)c(C)c1C(=O)OC` is reported as 12.1% (DH82; cell growth or viability, MTS; 20 µM, 24 h).
`CCCC[C@H](N)C(=O)N[C@H]1CSCc2ccc(cc2)-c2ccc(cc2)CSC[C@@H](C(=O)N[C@H](C(N)=O)[C@@H](C)O)NC(=O)[C@H](CCCCN)NC(=O)[C@H](CCCCN)NC(=O)[C@H](CCCCN)NC(=O)[C@H](Cc2ccc(O)cc2)NC(=O)[C@H](CC(N)=O)NC(=O)[C@H](CC(C)C)NC1=O` gave an inhibition of roughly 75% (AsPC-1 (KRAS G12D); ERK phosphorylation, Western blot, item: p-ERK/ERK; 50 µM).
With `COc1ccc(-c2ccc(COCCCCCN3C[C@H](O)[C@@H](O)[C@H](O)[C@H]3CO)cc2)cc1` the IC50 was 2.5 µM (Lysosomal acid glucosylceramidase (GBA1, Homo sapiens, UniProt P04062, R534H); inhibitor, 4MU-β-D-glucopyranoside; added: 4MU-β-D-glucopyranoside).
For `C=C(C)C1CC=C(CN2CCN(Cc3ccccc3)CC2)CC1` (stereo not drawn), the relative translation was 102% (Trypanosoma cruzi; reporter mRNA translation, inhibitor, item: capped polyadenylated Renilla luciferase mRNA; cell-free extract; concentration not given; relative to: control RNA).
For `C=CC(=O)N1CCC2(CCN(Cc3ccccc3)C2)C1` (stereo not drawn), inhibition read “decreased” (T47D, 14-3-3σ knockdown vs control; ERα reporter gene; 10 µM, 24 h).

Repeated from above:
`COc1cc(/C=C/C(=O)/C=C(O)/C=C/c2ccc(OCC(=O)N3CCOCCOCCOCC3)c(OC)c2)ccc1OCC(=O)N1CCOCCOCCOCC1` gave an inhibition of 64.9% (COS-7; cell growth or viability, SRB; 25 µM).
With `COc1cc([C@@H]2O[C@@H](c3cc(OC)c(O[C@@H]4O[C@H](CO)[C@@H](O)[C@H](O)[C@H]4O)c(OC)c3)[C@H](CO)[C@H]2CO)cc(OC)c1O` the inhibition was greater than 50% (3T3-L1; lipid accumulation, Oil Red O staining; 5 µM, early differentiation; relative to: vehicle).
